Published values from different studies.

Compound	tested on	test	test system	conditions	how to read	endpoint	result
CC(C)N1CCC(NC2CCN(c3cccc(-c4cc5cc(F)ccc5[nH]4)c3)CC2)CC1	SW-620	–	–	–	–	CC50	4170 nM
S=P1(c2ccccc2)CCCCC1	SW-620	MTT	–	72 h	reference: IC50 HaCaT over IC50 SW-620	selectivity index	1
Oc1cccc(-c2nc(N3CCOCC3)c3oc4ncccc4c3n2)c1	human coronavirus OC43	virus-induced cell killing	MRC-5	maximum over 10 doses	–	maximum inhibition	0%
Nc1ncc(-c2nc(N3CCOCC3)nc(N3CCOCC3)n2)c(C(F)F)n1	SW-620	–	–	72 h	–	GI50	300 nM
COc1c(CCC[P+](c2ccccc2)(c2ccccc2)c2ccccc2)cc2c(c1OC)OCO2.[I-]	SW-620	SRB	–	–	–	LC50	> -4 log M
COc1c(C)c2c(c(O)c1C/C=C(\C)CCC(=O)O)C(=O)OC2	SW-620	cell proliferation	colon cancer	–	–	IC50	347 nM
O=C1CCP(=[Se])(c2ccccc2)CC1	SW-620	MTT	–	72 h	reference: IC50 HaCaT over IC50 SW-620	selectivity index	1
CCN(CC)c1ccc(C=NNC(=O)CSc2nc3ccccc3c(=O)n2Cc2ccc(S(N)(=O)=O)cc2)c(O)c1	SW-620	NCI five-dose screen	–	–	–	CC50	> 100000 nM
Cn1cc(-c2ccc3nnc(C(F)(F)c4ccc5ncccc5c4)n3n2)cn1	human coronavirus OC43	virus-induced cell killing	MRC-5	maximum over 10 doses	–	maximum inhibition	0%
Cn1cncc1C1=CN(c2ncnc3[nH]cnc23)CCS1	SW-620	–	–	colon cancer	–	CC50	> 200000 nM
O=C1CCP(=S)(c2ccccc2)CC1	SW-620	ELISA	–	concentration not given, at IC50	reference: untreated	IL-6 reduction	89.8%
COc1cc(CCC[P+](c2ccccc2)(c2ccccc2)c2ccccc2)c(OC)c2c1OCO2.[I-]	SW-620	SRB	–	–	–	GI50	-5.74 log M

Repeated from above:
Compound	tested on	test	test system	conditions	how to read	endpoint	result
COc1c(C)c2c(c(O)c1C/C=C(\C)CCC(=O)O)C(=O)OC2	SW-620	cell proliferation	colon cancer	–	–	IC50	347 nM
